Assay results collected from several papers.
Each line is one published result; not all experiments were run side by side. ± gives the spread as reported.
Organism: Trypanosoma cruzi

Cc1nc(C)c(C(=O)Nc2ccc(F)c(-c3nc4ncc(-c5ccccn5)cn4n3)c2)o1  EC50 (parasite growth; epimastigote): 0.15 µM
O=c1c2ccccc2[se]n1-c1ccccc1  EC50 (U-2 OS host cells, Y; 72 h, intracellular amastigotes, together with: FBS 10%): 3 µM
C=C1C(=O)OC2CC(C)C3C=CC(=O)C3(C)C(OC(C)=O)C12 (stereo not shown)  selectivity index (epimastigote; reference: CC50 splenocytes over IC50 epimastigotes): 2
CC[C@H](C)/C=C/C(=O)N1C[C@@H](C)C[C@H]1C(=O)N[C@@H](CC(C)C)C(=O)N[C@H](C(=O)NC(C)(C)C(=O)N[C@@H](CC(C)C)C(=O)N[C@@H](CC(C)C)C(=O)NC(C)(C)C(=O)NC(C)(C)C(=O)NCCC(=O)N[C@@H](C)CNC)[C@H](O)C(C)C  EC50 (amastigote replication, high-content imaging; C2C12, CA-I/72; 72 h): 0.005 ± 0.0011 µM
CC(C)OC(=O)Nc1cnc2nc(-c3cc(NC(=O)c4ccco4)ccc3F)cn2c1  EC20 (epimastigotes; 0.2% DMSO): 0.2 µM
Cc1ncc([N+](=O)[O-])n1CC(O)CF (stereo not shown)  IC50 (parasite growth; 24 h, trypomastigote): 1170 µM
Cc1ncnc2c1c(C1=CCSCC1)cn2[C@@H]1O[C@H](CO)[C@@H](O)[C@H]1O  EC50 (CPRG readout; MRC-5 SV2, Tulahuen CL2 β-galactosidase; 7 days, intracellular amastigotes): 20.8 µM
CCCC[C@@H](O)C[C@@H](C)C[C@H](NC(=O)[C@@H]1C[C@H](C)CN1C(=O)/C=C/[C@@H](C)CC)C(=O)N[C@H](C(=O)NC(C)(C)C(=O)N[C@@H](CC(C)C)C(=O)N[C@@H](CC(C)C)C(=O)NC(C)(C)C(=O)NC(C)(C)C(=O)NCCC(=O)N[C@@H](C)CNC)[C@H](O)C(C)C  selectivity index (C2C12, CA-I/72; reference: CC50 C2C12 over EC50 amastigotes): > 410
N=C(N)NCCC[C@H](NC(=O)[C@H](CCCNC(=N)N)NC(=O)[C@H](CCCNC(=N)N)NC(=O)[C@H](CCC(N)=O)NC(=O)[C@H](CCCNC(=N)N)NC(=O)[C@H](CCCNC(=N)N)NC(=O)[C@H](CCCCN)NC(=O)[C@H](CCCCN)NC(=O)[C@H](CCCNC(=N)N)NC(=O)CNC(=O)[C@H](Cc1ccc(O)cc1)NC(=O)CNC(=O)CNC(=O)[C@@H]1CCCCNC(=O)CCC(=O)N[C@@H](CCCNC(=N)N)C(=O)N[C@@H](CC(N)=O)C(=O)NCC(=O)N[C@@H](CCC(N)=O)C(=O)N[C@@H](CS)C(=O)N[C@@H](CCC(N)=O)C(=O)N[C@@H](CCCNC(=N)N)C(=O)N[C@@H](CCCCN)C(=O)N1)C(N)=O  IC50 (parasite growth; 24 h, epimastigote): ~3 µM
CCCC[C@@H](O)C[C@@H](C)C[C@H](NC(=O)[C@@H]1C[C@H](C)CN1C(=O)/C=C/[C@@H](C)CC)C(=O)N[C@H](C(=O)NC(C)(C)C(=O)N[C@@H](CC(C)C)C(=O)N[C@@H](CC(C)C)C(=O)NC(C)(C)C(=O)NC(C)(C)C(=O)NCCC(=O)N[C@@H](C)CN(C)C)[C@H](O)C(C)C  selectivity index (C2C12, CA-I/72; reference: CC50 C2C12 over EC50 amastigotes): > 530
C=C1C(=O)O[C@@H]2C[C@H](C)[C@@H]3C[C@H](O[Si](C)(C)C)[C@H](O[Si](C)(C)C)[C@@]3(C)C[C@H]12  selectivity index (epimastigote; reference: CC50 splenocytes over IC50 epimastigotes): 5
CCC(=O)C[C@@H](O)C[C@@H](C)C[C@H](NC(=O)[C@@H]1C[C@H](C)CN1C(=O)/C=C/[C@@H](C)CC)C(=O)N[C@H](C(=O)NC(C)(C)C(=O)N[C@@H](CC(C)C)C(=O)N[C@@H](CC(C)C)C(=O)NC(C)(C)C(=O)NC(C)(C)C(=O)NCCC(=O)N[C@@H](C)CNC)[C@H](O)C(C)C  selectivity index (C2C12, CA-I/72; reference: CC50 C2C12 over EC50 amastigotes): > 120
C=C1C(=O)OC2CC(C)C3C=CC(=O)C3(C)C(O[Si](C)(C)C)C12 (stereo not shown)  selectivity index (epimastigote; reference: CC50 splenocytes over IC50 epimastigotes): 0.4

Some of these lines once more:
CCCC[C@@H](O)C[C@@H](C)C[C@H](NC(=O)[C@@H]1C[C@H](C)CN1C(=O)/C=C/[C@@H](C)CC)C(=O)N[C@H](C(=O)NC(C)(C)C(=O)N[C@@H](CC(C)C)C(=O)N[C@@H](CC(C)C)C(=O)NC(C)(C)C(=O)NC(C)(C)C(=O)NCCC(=O)N[C@@H](C)CNC)[C@H](O)C(C)C  selectivity index (C2C12, CA-I/72; reference: CC50 C2C12 over EC50 amastigotes): > 410
